Assay results collected from several papers.
Each line is one published result; not all experiments were run side by side. Numbers after ± are the reported error.

SMILES	target or system	test	system	conditions	scale	endpoint	value
Cc1ncsc1-c1ccc(C(C)NC(=O)C2CC(O)CN2C(=O)C(NC(=O)CCCCCCCCCCN2CCCC(Nc3ncc(Cl)c(Nc4ccccc4S(=O)(=O)C(C)C)n3)C2)C(C)(C)C)cc1 (stereo not drawn)	22Rv1	RNA-seq, item: ZNF764 mRNA	–	concentration not given	reference: DMSO	log2 fold change	-2.63
CC1CCC2C(C)(C)C(O)CCC2(C)C12Cc1c(O)cc(CO)c(C=O)c1O2 (stereo not drawn)	StaI′ (Stachybotrys chartarum)	substrate	–	30 min, pH 7.5, 40 °C	–	Vmax	4.16 nmol/min/mg
COCCOCCOCCNC(=O)Cc1cc(CC(=O)N[C@H]2C[C@H]3C(=O)Nc4cc(OCCOCCOCCOC)cc(n4)C(=O)N4CCC[C@H]4C(=O)Nc4cc(OCCOCCOCCOC)cc(n4)C(=O)N4CCC[C@H]4C(=O)Nc4cc(OCCOCCOCCOC)cc(n4)C(=O)N3C2)cc(CC(=O)N[C@H]2C[C@H]3C(=O)Nc4cc(OCCOCCOCCOC)cc(n4)C(=O)N4CCC[C@H]4C(=O)Nc4cc(OCCOCCOCCOC)cc(n4)C(=O)N4CCC[C@H]4C(=O)Nc4cc(OCCOCCOCCOC)cc(n4)C(=O)N3C2)c1	–	anion binding, ITC	water	298 K, together with: sodium sulfate	–	ΔG	-18.9 ± 0.2 kJ/mol
CC(C)c1ccc(N(C)c2ccc3c(c2)OCC[C@H]3CNc2cnccc2C(=O)O)cc1	SNU-398	cell growth or viability, ATP luminescence	–	7 days	–	IC50	18 nM
CC(=O)[O-].O.O.O.O.[Ni+2].[O-]c1ccc(Br)cc1C=NCCN1CCOCC1	–	DPPH radical scavenging	–	120 µM	–	inhibition	30.2%
O=c1[nH]cc(C(c2cccc(C(F)(F)F)c2)c2c[nH]c(=O)[nH]c2=O)c(=O)[nH]1	HIV-1 subtype C	p24 antigen production, p24 ELISA	–	3.9 µg/mL	–	inhibition	< 25%
c1ccc(-c2n[nH]cc2-c2ccnc3ccccc23)nc1	PTK2 (Candida albicans)	kinase binding, MIB/MS competition	Candida albicans lysate	10 µM	reference: DMSO	log2 fold change	0.15
CNS(=O)(=O)Nc1nccc(Cc2c(C)c3ccc(Oc4ncccc4F)cc3oc2=O)c1F	MC116	cell viability	–	7 days	–	IC50	> 1000 nM
C=CC(=O)N1[C@@H](c2ccc3c(c2)OCO3)c2[nH]c3ccccc3c2C[C@H]1C(=O)N1CCN(C)CC1	CCNE1 WT-3xFLAG:CDK2 complex	co-IP TMT proteomics, item: NPM1	HEK-293T	20 µM, 6 h	reference: DMSO	log2 fold change	-0.1
Cc1ccccc1C(c1c[nH]c(=O)[nH]c1=O)c1c[nH]c(=O)[nH]c1=O	HIV-1 subtype C	p24 antigen production, p24 ELISA	–	62.5 µg/mL	–	inhibition	35%
COc1cc(O)ccc1CCC(c1ccc(O)cc1)c1cc2c(c(C)c1O)OC(c1ccc(O)cc1)CC2 (mixture of isomers)	–	item: arachidonic acid	human whole blood	0.3 µM, together with: Escherichia coli	–	amount	514000 ± 51200 pg/mL blood
COc1ccc(/C=C/CN2CCCC(CCC(=O)NCc3ccc(F)c(F)c3)C2)cc1 (stereo not drawn)	Trypanosoma cruzi	reporter mRNA translation, inhibitor, item: capped polyadenylated Renilla luciferase mRNA	cell-free extract	concentration not given	reference: control RNA	relative translation	114%
CCCC[C@@H]1NC(=O)[C@@H](CC(C)C)NC(=O)[C@H](CCCCNC(=O)CN2CCN(CC(=O)O)CCN(CC(=O)O)CC2)NC(=O)NNC(=O)[C@H](Cc2c[nH]cn2)NC(=O)[C@@H](Cc2c[nH]c3ccccc23)NC1=O [copper-64 labelled]	–	–	Balb/c mice, brain	intravenous, dose not given	–	tissue uptake	0.01 %ID/g
Cn1ncc2cc(-c3cncc(Cl)c3N3CCC4(CCNC4=O)CC3)ccc21	LS174T	gene expression, microarray, item: RUNX1 mRNA	–	concentration not given, 4 h	reference: untreated cells	log2 fold change	1.22
O=c1[nH]cc(C(c2ccccc2Br)c2c[nH]c(=O)[nH]c2=O)c(=O)[nH]1	HIV-1 subtype C	p24 antigen production, p24 ELISA	–	1.95 µg/mL	–	inhibition	< 25%
CC[C@@H]([C@H](C)O)n1ncn(-c2ccc(N3CCN(c4ccc(OC[C@@H]5CO[C@@](Cn6cncn6)(c6ccc(F)cc6F)C5)cc4)CC3)cc2)c1=O	Trypanosoma cruzi	reporter mRNA translation, inhibitor, item: capped polyadenylated Renilla luciferase mRNA	cell-free extract	concentration not given	reference: control RNA	relative translation	126%
Nc1ncc(-c2cc(-c3cnn(CC(F)(F)F)c3)ncc2F)nc1C(=O)NC1CNCC(F)C1 (stereo not drawn)	PAK4	KINOMEscan	–	1 µM	reference: DMSO control	remaining binding	75%
CC1=C[C@H](O/C=C2/C(=O)O[C@@H]3c4ccccc4C[C@H]23)OC1=O	Arabidopsis thaliana	–	Col-0	–	–	maximum germination	47%
C=C(NC(=O)c1csc(-c2nc3c(cc2O)-c2nc(cs2)C(=O)NC(C(C)O)C(=O)NC(=C(C)OC)c2nc(cs2)C(=O)NC2c4nc(cs4)C(=O)NC(COC(=O)c4c5c6c(cccc6n4O)COC(=O)C(OC4CC(C)(O)C(N(C)C)C(C)O4)C2OC5)c2nc-3cs2)n1)C(N)=O (stereo not drawn)	Staphylococcus	–	MRSE-8, mouse systemic infection	intravenous	survival	ED50	1.24 mg/kg
COC1CN([C@H]2CC[C@H]([C@@]3(C)Oc4c(Cl)cc(C(=O)NCc5c(SC)cc(C)[nH]c5=O)c(C)c4O3)CC2)C1	–	RNA-seq, item: MCF2L	human, whole blood	dose not given, 24 h	reference: pretreatment baseline	log2 fold change	1.78
C=CC(=O)Nc1cccc(Cn2ncc3cnc(Nc4cnn(CCOC)c4)nc32)c1	ACVR1 human	binding, KINOMEscan	–	100 nM	lower = stronger binding	percent of control	97%
CCOc1cncc(-c2ccc(NC(=O)C3(c4ccnc(NS(=O)(=O)C5CC5)n4)CCOCC3)nc2)n1	498	cell growth, CellTiter-Glo	–	72 h	–	IC50	10000 nM
CN1CCCNC(=O)c2cccc(c2)C(=O)NCCCN(C)CCCNc2cccc3c2C(=O)c2cccc(c2C3=O)NCCC1	SAS	RNA-Seq, item: C10orf143 mRNA	–	1 µM, 6 h	reference: untreated cells	log2 fold change	2.29
CCN(CC)CC(=O)Nc1cccc(-n2cc(-c3ccc4ccc(-c5cn(-c6cccc(NC(=O)CN(CC)CC)c6)nn5)cc4c3)nn2)c1	RCC4	PCR angiogenesis array, item: CXCL10	–	5 x IC50, 2 h, normoxia	reference: untreated	fold regulation	1.4

Excerpt of the above:
SMILES	target or system	test	system	conditions	scale	endpoint	value
C=CC(=O)N1[C@@H](c2ccc3c(c2)OCO3)c2[nH]c3ccccc3c2C[C@H]1C(=O)N1CCN(C)CC1	CCNE1 WT-3xFLAG:CDK2 complex	co-IP TMT proteomics, item: NPM1	HEK-293T	20 µM, 6 h	reference: DMSO	log2 fold change	-0.1
Cc1ccccc1C(c1c[nH]c(=O)[nH]c1=O)c1c[nH]c(=O)[nH]c1=O	HIV-1 subtype C	p24 antigen production, p24 ELISA	–	62.5 µg/mL	–	inhibition	35%
COc1cc(O)ccc1CCC(c1ccc(O)cc1)c1cc2c(c(C)c1O)OC(c1ccc(O)cc1)CC2 (mixture of isomers)	–	item: arachidonic acid	human whole blood	0.3 µM, together with: Escherichia coli	–	amount	514000 ± 51200 pg/mL blood
